Results of several laboratories.
Every numbered part comes from another study and shows a few of its results, in no order. Positions count from the first letter of the parent shown.

Series 1
Target: Histone acetyltransferase KAT6A, winged helix 1, GST fusion (KAT6A, Homo sapiens, UniProt Q92794, residues 1-85)
Method: protein binding microarray
Molecule type: double-stranded DNA, one strand shown
Sample: in vitro
Tested at: not given
Setting: 8-mer, flanks averaged, mean of 2 arrays, mostly near background
Reference: not given
Direction: higher = stronger binding
Residues (chain): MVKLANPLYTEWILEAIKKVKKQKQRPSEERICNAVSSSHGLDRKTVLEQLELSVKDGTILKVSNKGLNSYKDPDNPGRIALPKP
Oligonucleotide	E-score
AAGGTAAA	-0.151
GCGCAGGA	0.185
CCCCTCCC	0.0465
AAAACCGC	0.206
CTTGCATA	-0.163
GCGCACTA	0.373
ACCAGATC	-0.0958
CCGTCGCG	0.459
ACGTTAAC	-0.0595
CAGTTAAG	-0.107
CGACTTAC	0.0422
ACAGCGCG	0.41
CTATAAAA	-0.167
ATGTAGGC	-0.0347
TTCGGCAA	-0.0176
AGGCACCT	-0.0635
GCGTGGCC	0.209
GATGATAA	-0.0561
CATTCCGA	0.0261
ACCTACCT	-0.0655
AAAGGACG	-0.0707
ACCAGGTA	-0.221
AGCGAAAG	0.0582
CGGAGATC	-0.019

Series 2
Target: Ras GTPase-activating protein-binding protein 1, full length (G3BP1, Homo sapiens, UniProt Q13283)
Sequence of UniProt Q13283 (whole entry, looked up): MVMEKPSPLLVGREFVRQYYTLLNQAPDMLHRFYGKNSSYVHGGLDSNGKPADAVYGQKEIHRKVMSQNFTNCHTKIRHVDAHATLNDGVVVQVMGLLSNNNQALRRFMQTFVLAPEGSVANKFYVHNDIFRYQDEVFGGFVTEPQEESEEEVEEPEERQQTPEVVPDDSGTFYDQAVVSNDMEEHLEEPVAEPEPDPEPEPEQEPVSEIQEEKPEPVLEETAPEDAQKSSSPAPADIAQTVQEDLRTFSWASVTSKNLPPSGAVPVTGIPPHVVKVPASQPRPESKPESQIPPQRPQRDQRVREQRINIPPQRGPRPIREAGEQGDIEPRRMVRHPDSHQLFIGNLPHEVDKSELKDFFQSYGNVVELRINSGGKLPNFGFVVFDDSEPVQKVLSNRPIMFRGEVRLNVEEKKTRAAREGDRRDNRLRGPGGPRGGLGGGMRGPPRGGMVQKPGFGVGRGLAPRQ
Method: RNA Bind-n-Seq
Molecule type: RNA
Sample: in vitro
Tested at: 200 nM
Setting: whole 134-nt RNA, ends assumed
Together with: 150 mM LiCl
Reference: input library
Direction: higher = stronger binding
All molecules: 7-deaza-guanosine replaces G
Oligonucleotide	log2 enrichment
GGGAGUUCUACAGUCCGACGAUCAAGUCCUGUGCUACACAUCGUAUGUACCGAAUCGGCCCCGGGGCCCCGGCCCCGGGGAAAGUAUUAUGUUACGCCGUUCGGAUCUGCACUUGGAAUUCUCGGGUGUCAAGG	-1.53
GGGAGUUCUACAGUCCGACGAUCCCUGUGCUACACAUCGUAUGUACCGAAUCAAACCCCCAAACCCCCCCAAAUUUUUUUAAAAAAGUAUUAUGUUACGCCGUUCGGAUCUGCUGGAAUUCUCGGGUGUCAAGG	0.574
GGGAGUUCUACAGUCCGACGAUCUCCUCAAGUCCUGUGCUACACAUCGUAUGUACCGAAUCGGGCGGCGGGGCGGAAAGUAUUAUGUUACGCCGUUCGGAUCUGCACUUCCAGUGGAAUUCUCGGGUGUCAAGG	0.395
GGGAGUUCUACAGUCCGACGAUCUCCUCAAGUCCUGUGCUACACAUCGUAUGUACCGAAUCGGAGGAGGGAGGGGAAAGUAUUAUGUUACGCCGUUCGGAUCUGCACUUCCAGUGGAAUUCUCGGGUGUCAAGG	-0.102
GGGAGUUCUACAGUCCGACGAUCAAGUCCUGUGCUACACAUCGUAUGUACCGAAUCGGAAAAAGGAAAAAGGAAAAAGGAAAGUAUUAUGUUACGCCGUUCGGAUCUGCACUUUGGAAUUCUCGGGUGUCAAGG	-0.955
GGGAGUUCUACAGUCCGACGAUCUCCUGUGCUACACAUCGUAUGUACCGAAUCGGGCCCCCGGGGCCCCCGGGCCCCCGGGGAAAGUAUUAUGUUACGCCGUUCGGAUCUGCAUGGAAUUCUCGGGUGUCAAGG	-1.82
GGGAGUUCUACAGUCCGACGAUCCUCAAGUCCUGUGCUACACAUCGUAUGUACCGAAUCGGAAAGGUUUGGUUUGGAAAGUAUUAUGUUACGCCGUUCGGAUCUGCACUUCCAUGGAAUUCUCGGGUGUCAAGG	-0.02
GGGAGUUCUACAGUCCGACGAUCUAACUUUAGAGGAGGAUCUGAUUGAUAUGGCAGUGGACGUGGAUUUGGGGAUGGCUAUAAUGGGUAUGGAGGAGGACCUGGAGGUGGCAAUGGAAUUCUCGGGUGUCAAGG	-0.185
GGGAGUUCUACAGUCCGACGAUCUUUCUGUGUGCUUAGGUGCCCGAGCUACUGAGGGUCUAAGUCCGGGCAGCCGAAGAGUGUGGUAGGUAACGGUCCUCAGCGCAAGGGUCAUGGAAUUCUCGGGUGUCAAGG	0.938
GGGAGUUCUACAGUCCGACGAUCUCAAGUCCUGUGCUACACAUCGUAUGUACCGAAUCGGGGUUGGGUUGGGUUGGGAAAGUAUUAUGUUACGCCGUUCGGAUCUGCACUUCCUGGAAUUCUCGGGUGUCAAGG	0.183
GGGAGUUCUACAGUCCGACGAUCAUAUGAGUAAAAUCUGUCCCUUUUUCCCCCUUUGAAUGAGGUCUUCCAUGUUUGAGGGAAAGUCUUGCACUAUUGCAUAUAUUUUGGGGAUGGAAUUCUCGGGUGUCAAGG	0.707

Series 3
Target: RNA binding protein fox-1 homolog 2, RRM domain, GST-SBP tag (RBFOX2, Homo sapiens, UniProt O43251-10, residues 100-194)
Method: RNA Bind-n-Seq
Molecule type: RNA
Sample: in vitro
Tested at: 365 nM
Setting: natural RNA segment, single round, ends assumed
Reference: no-protein control
Direction: higher = stronger binding
Target sequence (chain): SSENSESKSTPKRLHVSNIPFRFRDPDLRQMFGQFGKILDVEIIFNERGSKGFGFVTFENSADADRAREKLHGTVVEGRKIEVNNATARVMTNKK
Oligonucleotide	RBNS enrichment (R)
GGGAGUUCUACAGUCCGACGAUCGGAAGGGCAUUCAGGGCCCCUGGGCACCGCUUCUGUUGAAGCAGGGGCUUCUGGGCCCCUGGGUAUCCCCACCUGUCGUGGCCACACCUCUGCCUGCCUCAUGCCCCUUCUGGAAUUCUCGGGUGCCAA	0.577
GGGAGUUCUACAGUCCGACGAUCUGUGUAAAAUCUCCAAAUGGAUGUUACAGCUUUCAGCUUGAACGUUUGUUUCCAGACCUGAUUAAAAUUUGGUUUAUUCUAAUUUCUGUACUAUAUCAUCUGAGGUUUUAUGGAAUUCUCGGGUGCCAA	0.372
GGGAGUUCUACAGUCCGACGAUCGCUCUGUCAAUUAGAGGUGGAAUGGAGACCAACCUCCUUCCUGCCUCCUGGCUGUUCUUGAAACAGCUUAGAGCGAUUCUAUGAAAAUGUAAUAAAAAAUAAAAAUAAAAUGGAAUUCUCGGGUGCCAA	0.441
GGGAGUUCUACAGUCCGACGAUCUGUUUGACCUUGACUCAUUCCCCAUAUGUCUUUGAGGAGGCUCACAAAAUACUAAAGCUGGGAGGAAACUUGGAGAUCUAUAGGUCAAACCUCCCCAUUGGGCUGAUGAGUGGAAUUCUCGGGUGCCAA	0.342
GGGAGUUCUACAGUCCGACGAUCGGCAACAUAUUUAAGAUUUCCAGCUCCUUGUGUAUAUGAAUGCAUUUGUAAGCAUCCCCCAAAUUAUUCUGAAGGUUUUUUGAUGAUGGAGGUAUGAUAGGUUUAUCACAUGGAAUUCUCGGGUGCCAA	2.03
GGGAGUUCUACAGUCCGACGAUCUCACGAGUGUUCUCCAGAGAAUCAGAACCCAGAGGAUACAGACGUAGAUGUGUGAGGGGCUGCAUUAUGGGAACUGGCUCACAGAUUCUGGAGGCCAACAAGUCCCACGAUGGAAUUCUCGGGUGCCAA	0.286
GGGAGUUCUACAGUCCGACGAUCCCCAUGCAGUCAAAGCUUAUAAAGUUAUUUGCCUUAGGCAAAGCCAUUCAUUUCUUUUACCUAUAGUGAAAUUAUUGAAUAGUAGUUUUUCUGAACUGUUGGAUUCUAGGUGGAAUUCUCGGGUGCCAA	0.329
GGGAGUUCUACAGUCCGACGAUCGCCCUCAGCUCAGUUUUUGGCUCUGUUAUGGAGCCUUAGUACCCACCCCGUCUGUGUCCCCCAUGAAGGCAGCUGAGCUUUCAGAGCUGGGUUCAAAAAAAAAAAUUCCAUGGAAUUCUCGGGUGCCAA	0.364
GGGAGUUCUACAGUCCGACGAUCGUUACAUGUUUUAGGAUAAACUAAUUUCUUUUGAGUUCAUAAAUCAUUUGUACCCAGAAUGUAUUAAUAUAUUGCUAUUAGGUUAAUCUGUUAACUGAAUGCUUUGAUCAUGGAAUUCUCGGGUGCCAA	0.45
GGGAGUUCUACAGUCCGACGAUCCUUCUUUAUGGCAACAGGAGGAGAAAGCAAGGCCCAGGAGAGGAGGCCUCCAAGGCAGAAGCUAUUGGGAGCCUCCCUGAUGCUCCUCAGCCUCUUAGAGAGGAGCCCUUUGGAAUUCUCGGGUGCCAA	0.282
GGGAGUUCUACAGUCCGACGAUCGAUAAAACUAAUGGCAGAAAAAGAAGUUGAGCAAUUUCUAUGUAAUGUACAGAUACUAGCAUUGCACAUAUAGUCUGCUUUCUGUUCCUCCAGAAUUUGAGUCCUGUUAAUGGAAUUCUCGGGUGCCAA	0.586
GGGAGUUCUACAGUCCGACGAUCAGUCAUGUGGAAAUGGUGUACCCGGCUGAGAUUUUUACAGCAAUAAAGGGGACUCUCACUAGGCUAGAGGCCGCCUUCUGCUCCUCUCUUGCACUGACUCUGUGGAGGGGUGGAAUUCUCGGGUGCCAA	0.464

Series 4
Target: CCNA1, cyclin fold, Cln2 fusion (human)
Method: yeast growth competition, sequencing
Sample: yeast
Setting: weak parent motif
Reference: not given
Direction: higher = stronger binding
Parent: MICAL3 docking peptide (human); LQLRRQLSFSEDS; partner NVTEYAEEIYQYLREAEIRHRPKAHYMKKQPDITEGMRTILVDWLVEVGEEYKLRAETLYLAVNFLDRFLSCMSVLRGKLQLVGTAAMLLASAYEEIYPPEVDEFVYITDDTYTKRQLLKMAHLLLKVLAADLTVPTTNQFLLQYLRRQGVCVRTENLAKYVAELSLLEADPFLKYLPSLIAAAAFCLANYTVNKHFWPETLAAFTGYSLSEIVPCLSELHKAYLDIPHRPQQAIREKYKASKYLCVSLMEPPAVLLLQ
Change	normalised enrichment score
Q2T	0.384
S10G	0.655
D12I	0.874
E11D	0.275
Q6E	0.434
R4W	-0.313
Q6F	-0.4
D12F	0.392
Q6R	0.949
R4M	-0.0201
Q6D	0.0373
Q6K	0.345
L3E	-0.108
Q6H	-0.0104
Q6T	0.342
L7G	0.335
L3F	0.229

For quick reference, copied from above (series 1):
Oligonucleotide	E-score
AGGCACCT	-0.0635
GCGTGGCC	0.209
GATGATAA	-0.0561
